# Assay results of several laboratories.
# A part holds a random share of what one study measured.

# Series 1 — method: aptamer microarray, sandwich; molecule type: DNA with 2'F-ANA; matrix: in vitro; concentration: 200 nM; added: Cy3 exosite-II aptamer, 400 nM; reading: higher = stronger binding; sequence: GGTTGGTGTGGTTGG
# Target: Prothrombin, mature alpha-thrombin (F2, Homo sapiens, UniProt P00734)
# Setting: whole 15-mer aptamer, many near background
Modification,mean fluorescence intensity [a.u.]
2'F-ANA at 1 5 8 9 12 14,46.1
2'F-ANA at 2 5 9 10 11,49.3
2'F-ANA at 1 2 3 5 6 8 9 13 15,71.5
2'F-ANA at 2 3 4 6 7 9 12 15,707
2'F-ANA at 4 5 6 7 10 13 14,45.7
2'F-ANA at 3 5 13 15,86.9
2'F-ANA at 1 2 3 4 5 7 8 11 12 14 15,57.1
2'F-ANA at 2 4 5 6 7 8 11 15,77.1
2'F-ANA at 1 2 3 4 6 9 12,305
2'F-ANA at 5 6 7 9 11 12 14,47.4
2'F-ANA at 1 2 5 6 8 10 11 14,61
2'F-ANA at 1 3 5 6 7 9 11 12 13 14 15,448
2'F-ANA at 1 2 3 5 8 9 13 15,52.8
2'F-ANA at 6 7 8 10 11 13 14 15,140
2'F-ANA at 1 3 4 7 8 10 12 14 15,51.7
2'F-ANA at 2 4 8 9 10 14,73.4
2'F-ANA at 1 4 7 9 11 14,48
2'F-ANA at 4 5 6 7 8 11 12 13 14 15,50.4
2'F-ANA at 2 4 6 7 8 11 12,545
2'F-ANA at 1 5 8 9 10 11 13 14,50.2
2'F-ANA at 1 4 5 6 7 9,62.4

# Series 2 — method: protein binding microarray; molecule type: double-stranded DNA, one strand shown; matrix: in vitro; concentration: not given; reference: not given; reading: higher = stronger binding
# Target: Histone acetyltransferase KAT6A, winged helix 1, GST fusion (KAT6A, Homo sapiens, UniProt Q92794, residues 1-85)
# Setting: 8-mer, flanks averaged, mean of 2 arrays, mostly near background
# Residues (chain): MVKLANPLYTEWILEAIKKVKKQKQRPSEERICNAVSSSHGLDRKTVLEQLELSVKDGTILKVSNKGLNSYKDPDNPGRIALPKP
Sequence,E-score
ATCAACTC,-0.23
AATCAGAC,-0.0795
GCTACTTA,-0.136
ACACTAAC,0.0258
AGCACTCG,-0.00787
CACCTGAC,-0.102
GCGACTGA,0.103
AGACCACC,-0.0589
CCTTGATA,-0.213
CATTTACA,-0.1
CCGTCGCC,0.432
CACGGCCG,0.44
AGGTGGCC,-0.182
AAATTCGG,0.0855
AGTCTATG,-0.193
ACTATATC,-0.164
ATGGTCTG,-0.106

# Series 3 — method: protein-binding microarray; molecule type: double-stranded DNA, one strand shown; matrix: in vitro; concentration: 2540 nM top; setting: 60-bp whole probe; added: salmon DNA 0.4 mg/ml; reference: random background probes; reading: higher = stronger binding; all sequences stand within: GCCTAGCAC … GTCTTGATTCGCTTGACGCTGCTG
# Target: Interferon regulatory factor 3, full length, phosphomimetic (IRF3, Homo sapiens, UniProt Q14653, residues 1-427, S386D/S396D/S398D/S402D/T404D/S405D)
# Construct (chain): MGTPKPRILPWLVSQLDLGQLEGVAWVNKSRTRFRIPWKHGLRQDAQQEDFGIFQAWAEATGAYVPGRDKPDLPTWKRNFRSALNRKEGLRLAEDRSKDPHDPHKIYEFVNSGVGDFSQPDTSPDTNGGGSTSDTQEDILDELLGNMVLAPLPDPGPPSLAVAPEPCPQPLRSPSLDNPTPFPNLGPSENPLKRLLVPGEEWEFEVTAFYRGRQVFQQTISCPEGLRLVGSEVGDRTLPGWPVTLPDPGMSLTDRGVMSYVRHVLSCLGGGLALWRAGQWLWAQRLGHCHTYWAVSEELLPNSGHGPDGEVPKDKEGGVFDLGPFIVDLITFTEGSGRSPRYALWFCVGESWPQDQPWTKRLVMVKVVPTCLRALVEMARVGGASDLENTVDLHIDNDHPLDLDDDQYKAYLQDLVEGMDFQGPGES
Sequence,fitted relative affinity [z-score]
TTAGGTATCCCTTTCCTTTAGTGCTAG,7.48
GACGGACTGCTACTGCTGCCGTGCTAG,-0.967
TAGACCTAGAAAGAAACCACGTGCTAG,0.0248
TTAGGTATCGACTATCGGTTTGTGCTA,0.909
TTAGATTTCGGGACTGAATTAGTGCTA,1.82
AGAATGATCTTCCTTCATGGCGTGCTA,0.185
TTGCCTCTGCTGCTGGCCGCGTGCTAG,-0.716
TTAGATTTCGGGTTTCGATTGGTGCTA,2.65
TTAGGTTTCCGTATCCTTTAGTGCTAG,6.77
TTAGGTAACCTTTTCCTTTAGTGCTAG,3.56
GACGCTCTCGGTATCGGGACGTGCTAG,0.863
TTAGGTTCCGTTTTCGGTTAGTGCTAG,6.87
GACGGACTGGGTCCCGGGACGTGCTAG,-0.88
TTAGGTATCAGACTGGATTAGTGCTAG,1.31
GACGAACAGGGGACTGGAGACGTGCTA,-0.563
TTAGGTTTCGGCTATCGGTTAGTGCTA,2.74
GACGGTTTCGGGACTGGCGACGTGCTA,4.8
GACAGTATCGGTCTCGGGACGTGCTAG,4.73
GACGGCTTCGACACTGGGGACGTGCTA,-0.92
TTAGGTTTCGGTACCGGTTAGTGCTAG,7.48

# Series 4 — method: RNA Bind-n-Seq; molecule type: RNA; matrix: in vitro; concentration: not given; reference: input RNA pool; reading: higher = stronger binding
# Target: RING finger protein unkempt homolog, zinc fingers 1-6, GST-SBP tag (UNK, Homo sapiens, UniProt Q9C0B0, residues 30-357)
# Setting: RNA with constant flanks, human and mouse sites, ends assumed
# All sequences stand within: GGGAGUUCUACAGUCCGACGAUC … CAACAGAGGAUUGAGCAUCA
# Target sequence (chain): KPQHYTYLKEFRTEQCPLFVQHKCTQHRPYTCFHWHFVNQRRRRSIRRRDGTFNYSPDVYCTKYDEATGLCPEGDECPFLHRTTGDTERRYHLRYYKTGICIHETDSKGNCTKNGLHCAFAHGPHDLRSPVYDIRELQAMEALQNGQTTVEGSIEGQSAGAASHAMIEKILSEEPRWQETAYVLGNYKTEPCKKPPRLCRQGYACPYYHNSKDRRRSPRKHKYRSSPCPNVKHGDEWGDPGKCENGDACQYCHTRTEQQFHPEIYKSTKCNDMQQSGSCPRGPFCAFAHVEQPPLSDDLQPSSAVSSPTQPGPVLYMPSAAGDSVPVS
Sequence,bound/input enrichment [ratio]
GUAUAUCAAGGAGUGAAGAAAGAUGGCUUUUUACAACCUCAUUUUUUGGCAGAACAGGAUAUAGUUAUCAUUACCUAUGAUGUACUGCGUUCAGAAUUAAAUUAUGUCGAUAUCCCACAU,0.179
GACAGGGUAGGUGAUAUCCAUAUUUUGGAAGUCACAAAUAACCUAGAGCAUAAGUCCACUUUUAGUAUUUCGAAUUUUCUUAACAAGAGCAGAGGAAAUAACUUUACUGCAAAUCAGAAC,2.51
GUAUGGAAAAUUCAUUAAGAGACAGGCUGUUAAGUCAGGGUUUUUUCUUUAAAAGGUACUUUUUAAUUUUAAAUAUUUUAGUUUAAAAUAAUGAAAUUUGACAAAAGAUCUCUUCAUUAU,0.772
CCUGGUAAAUCUCAGGCAUCUAAUUUGAGAAAACGAGAAACCACAGCGUCUUCUAAAACAGUAGCAGCCAGGUCAGCACAGAAUCAGCCUCGGAAAGAAGAUCAGAAGAGAGCCUUCGUG,0.137
ACCUUGAAGGAUAGGUUUUCUUUCUGAUGGGCCAAAGUACUGGAAGCAAAGUACUUUCUGUAGUAGCCCAUGCUUACUUGUGACACUUUUAAUAUGAAAUGUAUCCCCAGACCAAAUGUC,0.23
CAGGUACAAGAGCAGAAGGCACAUCUUAGAGCUGCACAAGACCGUGUCCUUUCCCUAGAAACUAGUGUCAAUGAAUUAAAUAGUCAAUUAAAUGAAAGCAAGGAGAAGGUCUCCCAGCUU,230
AGUAAGAAUCUACCAAUUCUCAGGCACCAAGGGCAGCAGUUGGCAAACAAGUUGCAAUGUCCUUUUGUAGAUGUACCUGCUGGUACAUAUCCUCGUAAAUUUAAUGAAACCCAAAUAAAG,0.264
CUUGGUCAAGACACACUGACGGUACCUACAGAAUACUGGACAUACGGAUUCAGAAUCCAUAAGGCUUUAUCACCUUGAAUCAAGGAUUUAUUUGAUAUCAUCCUCGGUCUUUACUUCCUA,0.183
GAGAAGAAAUAUUGCAGUGAAUGAAGAUUCCUCUGCAUUUUAGCACUGCUUUUUCAACUGUAGUUGGCUUUUGAAUGAGGAUGACAAUGGAAGAGAUGAAGAAUGAAGCUGAGACCACAU,0.547
GAUUUCCUCACGUGCUCGCUUCGGCAGCACAUAUACUAAAAUUGGGACAAUACAGAGAAGAUUAGCGUGGCCCCUGCGCAAGGAUGACACGCAAAUUCGUGAAGCGUUCCAUAUUUUUGU,0.0687
GAUAAUCCUGUUUAAACUGGUGCUGUGUACAUGGGAUGUACUGAUACAGAACUUCUCUUCUAGGGAAAGCUAAUCAUUUGUCAAUGAUUUAAAAAUUAUUGUCACUACUGUUGAUUACUG,1.19

# Repeated from above (series 1):
Modification,mean fluorescence intensity [a.u.]
2'F-ANA at 1 2 3 4 5 7 8 11 12 14 15,57.1
2'F-ANA at 2 4 5 6 7 8 11 15,77.1
2'F-ANA at 1 2 3 4 6 9 12,305
2'F-ANA at 5 6 7 9 11 12 14,47.4
2'F-ANA at 1 2 5 6 8 10 11 14,61
2'F-ANA at 1 3 5 6 7 9 11 12 13 14 15,448
2'F-ANA at 1 2 3 5 8 9 13 15,52.8
2'F-ANA at 6 7 8 10 11 13 14 15,140
2'F-ANA at 1 3 4 7 8 10 12 14 15,51.7
2'F-ANA at 2 4 8 9 10 14,73.4
